Measured values pooled from the literature.
“And” joins repeats or separate records; there may be more than shown. ± gives the spread as reported.

COc1cc2oc(-c3ccc(O)cc3)cc(=O)c2c(O)c1[C@@H]1O[C@H](CO)[C@@H](O)[C@H](O)[C@H]1O[C@@H]1O[C@H](CO)[C@@H](O)[C@H](O)[C@H]1O — Cmax (male Sprague-Dawley rat, PCPA-induced insomnia, plasma; oral, 6.8 g/kg): 0.0401 ± 0.0175 µg/mL
COc1ccc(N2CCOCC2)c2sc(NC(=O)c3ccnc(CN4CCCC4)c3)nc12 — Cmax (Wistar rat, plasma (total); oral, 90 mg/kg/day, 14 days): 25.4 µg/mL
Cc1noc(C)c1Cn1cc(N2C(=O)CN(Cc3cccc(O[C@@H]4O[C@H](C(=O)O)[C@@H](O)[C@H](O)[C@H]4O)c3)C2=O)cn1 — Cmax (rat Sprague-Dawley male, plasma; oral, 30 mg/kg of parent drug): 8.05 µg/mL
O=C(O)/C=C/c1cccc(S(=O)(=O)Nc2ccccc2)c1 — Cmax (patients with moderate liver dysfunction, plasma; intravenous, 400 mg/m^2 belinostat, single 30 min infusion, cycle 1 day -7, mean): 1.83 µg/mL
N[C@@H](COc1ccccc1C(F)(F)F)c1ccccc1 — Cmax (male Sprague-Dawley rat, serum; intravenous, 5 mg/kg): 0.249 ± 0.002 µg/mL
C=C(c1cc(F)c(C(=O)O)c(F)c1)c1cc2c(cc1C)C(C)(C)CCC2(C)C — Cmax (rat Sprague-Dawley male, plasma; oral, 100 mg/kg, sesame oil): 2.41 µg/mL
N=C(N)NCCC[C@H](NC(=O)[C@@H]1CCCN1C(=O)[C@H](Cc1ccccc1)NC(=O)[C@@H]1CCCN1C(=O)[C@H](Cc1c[nH]cn1)NC(=O)[C@@H](N)Cc1ccccc1)C(=O)O — Cmax (Sprague-Dawley rat male, plasma; intravenous, 10 mg/kg): 0.0958 ± 0.0145 µg/mL
CN1CCN(c2ccc(Nc3ncc(Cl)c(Nc4ccccc4P(C)(C)=O)n3)cc2Br)CC1 — Cmax (Sprague-Dawley rat, male, plasma; oral, 25 mg/kg): 0.396 µg/mL and 0.372 µg/mL
CC(C)C[C@H](NC(=O)[C@H](CCCCN)NC(=O)CNC(=O)[C@H](CC(C)C)NC(=O)[C@@H](NC(=O)[C@@H]1CSSC[C@H](N)C(=O)N[C@@H](CO)C(=O)N[C@@H](CC(N)=O)C(=O)N[C@@H](CC(C)C)C(=O)N[C@@H](CO)C(=O)N[C@@H]([C@@H](C)O)C(=O)N1)C(C)C)C(=O)N[C@@H](CO)C(=O)N[C@@H](CCC(N)=O)C(=O)N[C@@H](CCC(=O)O)C(=O)N[C@@H](CC(C)C)C(=O)N[C@@H](Cc1c[nH]cn1)C(=O)N[C@@H](CCCCN)C(=O)N[C@@H](CC(C)C)C(=O)N[C@@H](CCC(N)=O)C(=O)N[C@H](C(=O)N[C@@H](Cc1ccc(O)cc1)C(=O)N1CCC[C@H]1C(=O)N[C@@H](CCCNC(=N)N)C(=O)N[C@H](C(=O)N[C@@H](CC(N)=O)C(=O)N[C@H](C(=O)NCC(=O)N[C@@H](CO)C(=O)NCC(=O)N[C@H](C(=O)N1CCC[C@H]1C(N)=O)[C@@H](C)O)[C@@H](C)O)[C@@H](C)O)[C@@H](C)O — Cmax (ELISA; hairless male Sprague-Dawley rat, serum; subcutaneous, 3 µg, coating dissolved from microneedles): 0.008 ± 0.0029 µg/mL
Cc1ncc2c(n1)CN(C(=O)Nc1nc(-c3cccs3)ccc1N)C2 — Cmax (male Sprague-Dawley rats; oral, 45 mg/kg daily, day 14): 3.78 ± 1.45 µg/mL
Oc1ccc2ccccc2c1/N=N/c1ccccc1 — Cmax (Sprague-Dawley rats both sexes, whole blood; oral, 50 mg/kg): 0.631 µg/mL
CC/C=C\C/C=C\C/C=C\C/C=C\C/C=C\CCCCOC(CC)C(=O)O (centres unmarked) — Cmax (Wistar rat, male, mesenteric lymph; oral, 100 mg/kg): 8.4 µg/mL
NC(=O)c1cnc2[nH]ccc2c1NC1C2CC3CC1CC(OS(=O)(=O)O)(C3)C2 (centres unmarked) — Cmax (Japanese adults, moderate hepatic impairment, plasma; oral, 150 mg single dose): 0.485 µg/mL
Cc1cc(CNCCCCCC(=O)NO)ccc1OCc1cccc(-c2ccccc2)c1C — Cmax (Sprague-Dawley rat, plasma; intravenous, 10 mg/kg): 3.6 µg/mL

Excerpt of the above:
CC(C)C[C@H](NC(=O)[C@H](CCCCN)NC(=O)CNC(=O)[C@H](CC(C)C)NC(=O)[C@@H](NC(=O)[C@@H]1CSSC[C@H](N)C(=O)N[C@@H](CO)C(=O)N[C@@H](CC(N)=O)C(=O)N[C@@H](CC(C)C)C(=O)N[C@@H](CO)C(=O)N[C@@H]([C@@H](C)O)C(=O)N1)C(C)C)C(=O)N[C@@H](CO)C(=O)N[C@@H](CCC(N)=O)C(=O)N[C@@H](CCC(=O)O)C(=O)N[C@@H](CC(C)C)C(=O)N[C@@H](Cc1c[nH]cn1)C(=O)N[C@@H](CCCCN)C(=O)N[C@@H](CC(C)C)C(=O)N[C@@H](CCC(N)=O)C(=O)N[C@H](C(=O)N[C@@H](Cc1ccc(O)cc1)C(=O)N1CCC[C@H]1C(=O)N[C@@H](CCCNC(=N)N)C(=O)N[C@H](C(=O)N[C@@H](CC(N)=O)C(=O)N[C@H](C(=O)NCC(=O)N[C@@H](CO)C(=O)NCC(=O)N[C@H](C(=O)N1CCC[C@H]1C(N)=O)[C@@H](C)O)[C@@H](C)O)[C@@H](C)O)[C@@H](C)O — Cmax (ELISA; hairless male Sprague-Dawley rat, serum; subcutaneous, 3 µg, coating dissolved from microneedles): 0.008 ± 0.0029 µg/mL
